# Experimental data gathered from unrelated publications.
# Each line is one published result; not all experiments were run side by side. “And” joins repeats or separate records; there may be more than shown. Numbers after ± are the reported error.
SMILES,test,system,setting,scale,quantity,value
C[C@]1(CO)Cc2ncn(-c3ccc(C#N)c(Cl)c3)c2C(=O)O1,,"human, plasma",20 mg multiple doses,relative to: dose-proportional exposure,linearity index,106%
CO[C@H]1C[C@@H]2CC[C@@H](C)[C@@](O)(O2)C(=O)C(=O)N2CCCC[C@H]2C(=O)O[C@H]([C@H](C)C[C@@H]2CC[C@@H](OC(=O)NCCOCCOCCOCCOCCOCCOCCOCCOCCC(=O)N3CCc4cc(Cn5nc(-c6ccc7oc(N)nc7c6)c6c(N)ncnc65)ccc4C3)[C@H](OC)C2)C[C@@H](O)[C@H](C)/C=C(\C)[C@@H](O)[C@@H](OC)C(=O)[C@H](C)C[C@H](C)/C=C/C=C/C=C/1C,"phase 1 dose escalation, refers to: fatigue",advanced solid tumour patients,"intravenous, 10 mg weekly, grade ≥3",,dose-reducing adverse events,0%
COc1cccc(Oc2ccccc2NC(=O)CNC(=O)c2cccc3ccccc23)c1,,"esterase-deficient SCID mice, male","oral, 100 mg/kg/day, 14 days, toxicity study",,total protein,5.2 g/dL and 5.5 g/dL and 5.4 g/dL
CCc1ccc(CC/C=C/c2ccc3c(c2)C(=O)CC3)cc1,,"Sprague-Dawley rat, female, blood","oral, 30 mg/kg/day, 14 days",,prothrombin time,12.8 s
N[C@@H]1c2ccccc2OC12CCN(c1cnc3c(N4CCCc5ncccc54)n[nH]c3n1)CC2,,advanced solid tumour patients,"oral, 60 mg once daily",,TEAE causing dose reduction,20%
Cn1c(-c2ccc(C(N)=O)cc2F)nnc1C(C)(C)Oc1c(F)cc(Cl)cc1F,,human,"oral, dose not given, single ascending dose all doses",,subjects with general disorders TEAE,22.2%
COc1cc2c(Oc3ccc4[nH]c(C)cc4c3F)ccnc2cc1OCC1(N)CC1,refers to: grade 3 intestinal obstruction,paediatric high-risk refractory sarcoma,8 mg,,incidence of adverse event,0%
O=C(Nc1ccccc1)C1CCN(C(=O)Oc2cccnc2)CC1,adverse event reporting,healthy women,"oral, 60 mg, 7 days",,subjects with blurred vision,0%
[Cl][212Pb][Cl],,"athymic mice, C4-2 xenograft, testes","intravenous, 2 h, 212Pb-labelled",,tissue uptake,0.41 ± 0.07 %ID/g
Brc1ccc(Oc2cc(Br)c(Br)cc2Br)c(Br)c1,ultrafiltration,cow milk whey,20 nM nominal in whole milk,,dose fraction in permeate,18%
C[C@@H](NC(=O)N1C(=O)[C@H](Cc2ccnc(N)c2)[C@H]1C(=O)O)C1CCCCC1,,healthy Chinese adult volunteers,"continuous intravenous infusion, dose not given, 5.0 days, all doses pooled",,subjects with AEs leading to discontinuation,7.5%
O=C(O)CCCOc1ccc(F)cc1-c1cc(-c2ccccc2C(F)(F)F)n(-c2ccccc2)n1,,female Crl:CD(SD) rats,"intravenous, 25 µg/kg, 14 d",,APTT,18.7 s and 18.1 s and 16.7 s and 17.8 s and 16.8 s
CCN1CCN(Cc2ccc(Nc3ncc(F)c(-c4cc(F)c5nc6n(c5c4)[C@H](C)CCC6)n3)nc2)CC1,,advanced solid tumour patients,"dose not given, Phase Ia monotherapy",,"Neutropenia incidence, any grade",58.3%

# For quick reference, copied from above:
SMILES,test,system,setting,scale,quantity,value
N[C@@H]1c2ccccc2OC12CCN(c1cnc3c(N4CCCc5ncccc54)n[nH]c3n1)CC2,,advanced solid tumour patients,"oral, 60 mg once daily",,TEAE causing dose reduction,20%
